Assay results from different studies.
A part holds a random share of what one study measured.

Study 1
Target: Prothrombin, mature alpha-thrombin (F2, Homo sapiens, UniProt P00734)
Method: aptamer microarray, sandwich
Form: DNA with 2'F-ANA
Matrix: in vitro
Tested at: 200 nM
Setting: whole 15-mer aptamer, many near background
Added: Cy3 exosite-II aptamer, 400 nM
Direction: higher = stronger binding
`GGTTGGTGTGGTTGG (2'F-ANA at 1 2 3 5 6 7 8 9 10 11 12 14)`: “mean fluorescence intensity” 60.5 a.u.
`GGTTGGTGTGGTTGG (2'F-ANA at 3 5 10 11 12 13)`: “mean fluorescence intensity” 61.9 a.u.
`GGTTGGTGTGGTTGG (2'F-ANA at 2 5 6 7 9 11 12 13 15)`: “mean fluorescence intensity” 156 a.u.
For `GGTTGGTGTGGTTGG (2'F-ANA at 1 2 4 6 9 10 13 14 15)`, “mean fluorescence intensity” read 70.6 a.u.

Study 2
Target: Ras GTPase-activating protein-binding protein 1, full length (G3BP1, Homo sapiens, UniProt Q13283)
Sequence of UniProt Q13283 (whole entry, looked up): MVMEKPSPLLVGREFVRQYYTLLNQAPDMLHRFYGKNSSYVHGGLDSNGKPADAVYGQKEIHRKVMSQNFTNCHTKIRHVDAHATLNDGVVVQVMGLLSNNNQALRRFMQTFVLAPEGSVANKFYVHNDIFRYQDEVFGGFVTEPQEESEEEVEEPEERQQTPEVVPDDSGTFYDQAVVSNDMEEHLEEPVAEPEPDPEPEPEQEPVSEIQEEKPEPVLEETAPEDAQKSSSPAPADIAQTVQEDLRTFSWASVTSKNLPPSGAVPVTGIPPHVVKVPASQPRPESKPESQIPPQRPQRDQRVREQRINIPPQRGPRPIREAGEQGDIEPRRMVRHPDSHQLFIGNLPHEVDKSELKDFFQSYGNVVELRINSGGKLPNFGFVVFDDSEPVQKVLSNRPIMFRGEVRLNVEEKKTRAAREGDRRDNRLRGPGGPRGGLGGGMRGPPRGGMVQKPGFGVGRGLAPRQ
Method: RNA Bind-n-Seq
Form: RNA
Matrix: in vitro
Tested at: 200 nM
Setting: whole 134-nt RNA, ends assumed
Added: 150 mM LiCl
Relative to: input library
Direction: higher = stronger binding
Library: 7-deaza-guanosine replaces G
The log2 enrichment of `GGGAGUUCUACAGUCCGACGAUCCCUCAAGUCCUGUGCUACACAUCGUAUGUACCGAAUCGGGCGGGCGGGCGGGAAAGUAUUAUGUUACGCCGUUCGGAUCUGCACUUCCAGUGGAAUUCUCGGGUGUCAAGG` is reported as -0.151.
`GGGAGUUCUACAGUCCGACGAUCAAGUCCUGUGCUACACAUCGUAUGUACCGAAUCGGGGUUUUGGUUUUGGGUUUUGGGAAAGUAUUAUGUUACGCCGUUCGGAUCUGCACUUGGAAUUCUCGGGUGUCAAGG` has a log2 enrichment of 0.0933.
With `GGGAGUUCUACAGUCCGACGAUCCAAGUCCUGUGCUACACAUCGUAUGUACCGAAUCGGGUUGGGGUUGGGGUUGGGGAAAGUAUUAUGUUACGCCGUUCGGAUCUGCACUUCUGGAAUUCUCGGGUGUCAAGG` the log2 enrichment was 0.234.

Study 3
Target: Sal-like protein 4, full length isoform A (SALL4, Homo sapiens, UniProt Q9UJQ4, residues 1-1053)
Sequence of UniProt Q9UJQ4 (whole entry, looked up): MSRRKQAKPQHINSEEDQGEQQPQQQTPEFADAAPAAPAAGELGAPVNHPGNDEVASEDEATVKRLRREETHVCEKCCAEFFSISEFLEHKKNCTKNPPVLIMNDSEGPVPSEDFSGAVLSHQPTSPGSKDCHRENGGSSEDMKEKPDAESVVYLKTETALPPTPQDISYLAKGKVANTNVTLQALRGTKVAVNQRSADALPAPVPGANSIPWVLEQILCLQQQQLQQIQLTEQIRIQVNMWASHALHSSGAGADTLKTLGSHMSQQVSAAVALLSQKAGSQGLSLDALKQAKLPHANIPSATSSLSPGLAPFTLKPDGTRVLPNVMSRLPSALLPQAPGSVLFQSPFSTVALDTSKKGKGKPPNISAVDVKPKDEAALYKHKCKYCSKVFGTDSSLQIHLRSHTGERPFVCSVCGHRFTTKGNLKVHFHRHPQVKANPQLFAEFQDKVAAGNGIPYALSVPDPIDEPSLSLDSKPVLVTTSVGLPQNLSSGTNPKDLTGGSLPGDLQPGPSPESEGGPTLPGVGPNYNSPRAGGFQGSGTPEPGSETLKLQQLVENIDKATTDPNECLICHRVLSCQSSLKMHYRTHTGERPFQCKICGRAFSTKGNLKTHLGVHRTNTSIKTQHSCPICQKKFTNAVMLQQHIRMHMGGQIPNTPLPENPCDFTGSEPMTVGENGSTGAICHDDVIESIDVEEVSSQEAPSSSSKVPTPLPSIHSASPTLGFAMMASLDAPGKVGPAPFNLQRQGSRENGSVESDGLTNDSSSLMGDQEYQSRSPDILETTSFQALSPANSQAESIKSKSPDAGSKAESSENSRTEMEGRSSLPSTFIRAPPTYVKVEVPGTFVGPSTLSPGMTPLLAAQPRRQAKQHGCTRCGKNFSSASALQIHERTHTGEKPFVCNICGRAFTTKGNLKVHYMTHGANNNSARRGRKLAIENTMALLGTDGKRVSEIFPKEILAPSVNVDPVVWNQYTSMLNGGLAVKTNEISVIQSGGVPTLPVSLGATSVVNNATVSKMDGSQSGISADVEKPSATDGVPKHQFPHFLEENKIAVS
Method: universal PBM
Form: double-stranded DNA, one strand shown
Matrix: in vitro
Tested at: 600 nM
Setting: 8-mer, flanks averaged, mean of replicates
Direction: higher = stronger binding
The E-score of `AACGAATT` is reported as 0.178.
With `AATTAATA` the E-score was 0.474.
With `CATATTCC` the E-score was 0.238.

Single results of other studies
With `PhoQ, residues 284 288 289 292 302 303 GLASVI` the fold induction was 21.2 (PhoP, residues 12 14 15 18 19 SPWRL (Escherichia coli, UniProt P23836); Sort-seq, item: YFP reporter; E. coli; PhoQ-PhoP variant library, added: 10 µM Mg2+; relative to: high Mg2+ state, higher = stronger signaling).

Excerpt of the above (study 1):
`GGTTGGTGTGGTTGG (2'F-ANA at 3 5 10 11 12 13)`: “mean fluorescence intensity” 61.9 a.u.
For `GGTTGGTGTGGTTGG (2'F-ANA at 1 2 4 6 9 10 13 14 15)`, “mean fluorescence intensity” read 70.6 a.u.
